Published values of several laboratories.
Lines come from different studies, so protocols differ. Several values in a cell are separate wells, animals, samples, runs or records. ± marks the error that the study gave.

The plasma concentration of CCCCCN1C[C@H](O)[C@@H](O)[C@H](O)[C@@H]1CO is reported as 230 ng/mL (LC-MS/MS; mouse Hexb-/- male, plasma; 30 mg/kg/day, arithmetic mean).
The plasma concentration of CC(=O)NCc1cc2c(cc1F)C(=O)N(C1CCC(=O)NC1=O)C2 (centres unmarked) is reported as 5.1 ± 0.3 ng/mL (CD-1 mouse, male; oral, 10 mg/kg parent drug, 0.67 h).
Cc1c(C(=O)O)ccc2c3n(nc12)[C@@H]1[C@H](C3)N(CC2CC2)[C@@]2(C(=O)Nc3cc(Cl)ccc32)[C@H]1c1cccc(Cl)c1F has a plasma concentration of 2.18 µM (female BALB/c nude mouse, SJSA-1 xenograft, plasma; oral, 2 mg/kg once daily, 4 h).
With C[C@@H](O)[C@H]1C(=O)N2C(C(=O)O)=C(S[C@@H]3CN[C@H](C(=O)N(C)C)C3)[C@H](C)[C@H]12 the plasma concentration was 11700 ng/mL (BALB/c mouse, male, plasma; intraperitoneal, dose not given, 4 h, added: combination treatment).
For Cc1cc([C@H]2C[C@H]3[C@@H](C)SC(N)=N[C@@]3(c3ccc(F)cc3F)CO2)on1, the plasma concentration was 0.692 µM (male 129/SVE mouse, plasma; subcutaneous, 50 mg/kg, 5 h).
O=C1CCC(N2Cc3cc(CO)c(F)cc3C2=O)C(=O)N1 (centres unmarked) gave a plasma concentration of 2.5 ng/mL (CD-1 mouse, male; oral, 10 mg/kg parent drug, 4 h).
Cc1coc([C@H]2C[C@H]3[C@@H](CF)SC(N)=N[C@@]3(c3ccc(F)cc3F)CO2)n1 gave a plasma concentration of 0.227 µM (male 129/SVE mouse, plasma; subcutaneous, 80 mg/kg, 5 h).
The plasma concentration of c1ccc(-c2nc(N3CCC(c4ccccn4)C3)c3ccccc3n2)nc1 (centres unmarked) is reported as 1630 ng/mL (mouse, Balb/c female, plasma; oral, 12.5 mg/kg, 8 h, mean, added: aminobenzotriazole pretreatment).
For c1csc(CNc2cc[nH]n2)c1, the plasma concentration was 54.6 µM (mouse, CD-1, male, plasma; oral, 20 mg/kg as HCl salt, 0.25 h).
For CNC(=O)c1cc2c(Oc3ccc(NC(=O)C4(C(=O)Nc5ccc(F)cc5)CC4)cc3)ccnc2cc1OC, the plasma concentration was 2.44 µM (LC-MS/MS; mouse, NCI-H441 xenograft, plasma; oral, 3 mg/kg once daily for 14 days, 4 h).
With CSc1cc(Oc2ccnc3[nH]c(=O)cnc23)ccc1NC(=O)Nc1cc(C(C)(C)C)nn1-c1ccccc1 the plasma concentration was 48.4 µM and 53.5 µM and 53.9 µM and 47.7 µM and 36.1 µM (NSG mouse, female, plasma; oral, 20 mg/kg, 1 h after last dose).
CCN1CCN(Cc2ccc(NC(=O)c3ccc(C)c(NC(=O)c4cncc(-c5cccs5)c4)c3)cc2C(F)(F)F)CC1: plasma concentration “not detected” (C57BL/6 mouse, plasma; intraperitoneal, 15 mg/kg, 24 h, single dose).
Cc1cc([C@H]2C[C@H]3[C@@H](CF)SC(N)=N[C@@]3(c3ccc(F)cc3F)CO2)on1 has a plasma concentration of 0.654 µM (male 129/SVE wild-type mouse, plasma; subcutaneous, 30 mg/kg, 3 h).
CC(C)(C)c1cc(NC(=O)Nc2ccc(Oc3ccnc4[nH]c(=O)cnc34)cc2F)n(-c2ccccc2)n1 gave a plasma concentration of 3.29 µM and 6.07 µM and 7.18 µM and 17.7 µM (NSG mouse, female, tumor; oral, 20 mg/kg, 1 h after last dose).

Some of these lines once more:
For c1csc(CNc2cc[nH]n2)c1, the plasma concentration was 54.6 µM (mouse, CD-1, male, plasma; oral, 20 mg/kg as HCl salt, 0.25 h).
For CNC(=O)c1cc2c(Oc3ccc(NC(=O)C4(C(=O)Nc5ccc(F)cc5)CC4)cc3)ccnc2cc1OC, the plasma concentration was 2.44 µM (LC-MS/MS; mouse, NCI-H441 xenograft, plasma; oral, 3 mg/kg once daily for 14 days, 4 h).
